Experimental data pooled from the literature.
Lines come from different studies, so protocols differ. Values joined by “and” are separate records of one study, mostly repeats; a detail may differ. Numbers after ± are the reported error.

Compound | target | assay | test system | conditions | scale | endpoint | value
Nc1ncc(-c2cc(-c3cnn(CC(F)(F)F)c3)ncc2F)nc1C(=O)NC1CNCC(F)C1 (centres unmarked) | ULK1 | KINOMEscan |  | 1 µM | baseline: DMSO control | remaining binding | 95%
C[n+]1ccc(/C=N/NC(=O)c2cncc(C(=O)N/N=C/c3cc[n+](C)c4ccccc34)n2)c2ccccc21 | hairpin duplex DNA | UV melting |  | 1 molar equivalents, DNA 3 µM |  | ΔTm | 0 °C
C=CC(=O)N1[C@@H](c2ccc3c(c2)OCO3)c2[nH]c3ccccc3c2C[C@H]1C(=O)N1CCN(C)CC1 | human cyclin E1 N112C-3xFLAG:CDK2 | co-IP with TMT proteomics, refers to: SNRPD3 |  | concentration not given, P62318 | baseline: wild type DMSO | relative co-enrichment | 132%
C=CC(=O)Nc1cccc(Cn2ncc3cnc(Nc4cnn(CCOC)c4)nc32)c1 | RIPK4 human | binding, KINOMEscan |  | 100 nM | lower = stronger binding | percent of control | 87%
Fc1ccc(Nc2nc(NC3CCCCC3)c3cc(Br)ccc3n2)cc1F | β2AR/β1AR ECL2 chimera | β-arrestin2 recruitment, antagonist, BRET |  |  | baseline: isoprenaline maximal response | maximal inhibition | 1.2%
c1ccc(-c2n[nH]cc2-c2ccnc3ccccc23)nc1 | MPS1 (Candida albicans) | kinase binding, MIB/MS competition | Candida albicans lysate | 10 µM | baseline: DMSO | log2 fold change | 0.49
Fc1ccc(Nc2nc(NC3CCCCC3)c3ccccc3n2)cc1F | β2AR/β1AR ECL2 chimera | β-arrestin2 recruitment, antagonist, BRET |  | added: isoprenaline 1 µM |  | pIC50 | 5.8
C=CC(=O)N1[C@H](c2ccc3c(c2)OCO3)c2[nH]c3ccccc3c2C[C@@H]1C(=O)NC1CC1 | FAM213A Cys85 human | cysteine IA-DTB labelling, covalent inhibitor, MS-ABPP | 22Rv1 | 20 µM, 3 h |  | inhibition | 20% and 38%
Fc1ccc(Nc2nc(NC3CCCCC3)c3cc(C(F)(F)F)ccc3n2)cc1F | β2AR/β1AR ECL2 chimera | β-arrestin2 recruitment, antagonist, BRET |  |  | baseline: isoprenaline maximal response | maximal inhibition | -2%
Cc1cn(CC(=O)N(CCNC(=O)CN(CCNC(=O)CN(CCNC(=O)CN(CCNC(=O)CN(CCNC(=O)CN(CCNC(=O)CN(CCNC(=O)CN(CCN)C(=O)Cn2cnc3c(=O)[nH]c(N)nc32)C(=O)Cn2cnc3c(N)ncnc32)C(=O)Cn2cc(C)c(=O)[nH]c2=O)C(=O)Cn2cnc3c(=O)[nH]c(N)nc32)C(=O)Cn2cc(C)c(=O)[nH]c2=O)C(=O)Cn2cnc3c(=O)[nH]c(N)nc32)C(=O)Cn2cnc3c(N)ncnc32)CC(=O)NCCN(CC(=O)NCCOCCOCC(N)=O)C(=O)Cn2cnc3c(N)ncnc32)c(=O)[nH]c1=O | mismatched DNA TC | duplex formation, UV melting |  |  | baseline: complementary DNA | ΔTm | -19.2 °C
CC(C)(C)c1ccc(C(=O)N2Cc3cccnc3Nc3ccccc32)cc1 | IDH1 R132H human | 2-HG production, RapidFire mass spectrometry | MOG-G-UVW overexpressing IDH1 R132H |  |  | IC50 | 1270 nM
C[n+]1ccc(/C=N/NC(=O)c2cccc(C(=O)N/N=C/c3cc[n+](C)c4ccccc34)n2)c2ccccc21 | hairpin duplex DNA | UV melting |  | 2 molar equivalents, DNA 3 µM |  | ΔTm | 2 °C
CC(C)(O)c1ccn2c(-c3ccc(F)c(-c4ccc(F)cc4C#N)c3)cnc2c1F | GABAA receptor α1 R214C human | cell surface biotinylation | HEK-293T | 5 µM, 24 h, added: hispidulin 10 µM | baseline: DMSO | surface expression | 1.75 ± 0.33 fold
C=CC(=O)N1Cc2nc(-c3cc(-c4cc(Cl)cnc4Cl)c(F)cc3F)n(-c3ccncn3)c2C1 | CDK11 (human) | kinome panel |  | 1 µM |  | inhibition | -2.2%
